Measurements gathered from unrelated publications.
Each numbered part is a random draw from the data of one study; scales do not carry over between parts.

Block 1
Target: RING finger protein unkempt homolog, zinc fingers 1-6, GST-SBP tag (UNK, Homo sapiens, UniProt Q9C0B0, residues 30-357)
Chain of UniProt Q9C0B0 (30-357, looked up): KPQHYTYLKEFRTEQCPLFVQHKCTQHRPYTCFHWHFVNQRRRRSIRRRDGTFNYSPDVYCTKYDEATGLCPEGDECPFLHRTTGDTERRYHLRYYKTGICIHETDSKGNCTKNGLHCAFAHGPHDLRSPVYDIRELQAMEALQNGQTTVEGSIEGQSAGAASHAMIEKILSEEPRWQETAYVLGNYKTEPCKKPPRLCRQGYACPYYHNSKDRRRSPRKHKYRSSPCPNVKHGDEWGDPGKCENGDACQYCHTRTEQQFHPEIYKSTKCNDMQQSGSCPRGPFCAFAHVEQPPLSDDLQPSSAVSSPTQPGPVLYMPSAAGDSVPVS
Method: RNA Bind-n-Seq
Molecule type: RNA
Sample: in vitro
Tested at: not given
Notes: RNA with constant flanks, ends assumed
Baseline: input RNA pool
Direction: higher = stronger binding
Endpoint: bound/input enrichment
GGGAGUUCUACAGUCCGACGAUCAACAAACUUAUAGUGACGCGUUGGAAGGCUAACCGAAGCCAUCCUUACCCCUAUUUAAUGCCGCUUGGCUUGCUUUCCCUUUUAUCUGAUGUUACCAUUGCGAUCUAGCUUUCUUUUCAUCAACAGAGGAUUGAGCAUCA: 0.616 ratio
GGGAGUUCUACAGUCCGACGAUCCUCAAUGCCUUAACCAAGCGUGUCUCCCCACUGAUAGGACGUUUUGUUCCCUUCGCUGCUGCCGCUGCUGCUAACUGCAUUAACAUCCCACUGAUGAGACAAAGGGAGCUGAAGGUUGGUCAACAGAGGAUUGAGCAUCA: 0.246 ratio
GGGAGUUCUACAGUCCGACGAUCGACACAGUGUGUCUCUCUGAUUGGGCUUCUAAAUCAAAAGCCUGAUGUUCGUGUCCCUCUCACCGGGGGAGCUUUGGACACAGGACCAGUUUGGAAAAGGGUCAGGUAAGGGUUUCCACUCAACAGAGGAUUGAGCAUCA: 0.109 ratio
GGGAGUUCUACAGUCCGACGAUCCAGAUGAGGAAACUGAGGCCCAGAGAAGCGGAAAGGACUUCCCUAGACCUUACAGUAAAUCCGCAUUAAAUGCAGCCUUCCUACCUAGUGGGCACCUUGCUUACAAAAAUUUACCUAGGGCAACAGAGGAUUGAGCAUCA: 0.276 ratio
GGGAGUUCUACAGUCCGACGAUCAAUGUGGCAUUCAUGAGCUACUUUUUACAGGGCAAGGUUGAUGCCUGCCUAGAGCUCUUAAUCCGAACUGGACGGCUGCCAGAAGCUGCCUUCUUGGCCCGAACUUACUUACCCAGUCAGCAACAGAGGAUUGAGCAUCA: 0.157 ratio
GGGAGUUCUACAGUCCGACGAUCUUAUUAUAGCUUUGAAAUAAAAAAUCGUGAGGGAAAAAAAAUCCAAUGAUUGUACUGUGGUCCGGAGUUUUAUUACCAAGACAUUUAUGUCACUUUUCUUUCCCUUGUCAUUUUGAGGGGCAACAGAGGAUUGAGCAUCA: 0.765 ratio
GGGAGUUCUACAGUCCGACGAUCAGUACUGCCCGUGCAAAUCCCACAACACUGAAUGCAAAGUAGCAAUUUCCAUAGUCACAGUCCGGCCGCUUUAGGGCAAUAUUGCCAUGGUUUUACUCAUGUGCAGGUUUUGAAAAUGUACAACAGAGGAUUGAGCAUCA: 16.7 ratio
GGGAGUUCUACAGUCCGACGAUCAAGUGCUUAUGAUUCAAUUAAUCUACAUUUUGGUAAUCAAUUAUAAAAUACUUUUUAAAUCCGUAUUGGCUAUUUUUUUUUUUUACCCUGGGAAGAUGCUGUCUGCUCACAGGAGUCCCACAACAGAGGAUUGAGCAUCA: 1.71 ratio
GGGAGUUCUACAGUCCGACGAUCGGUCCGCCAAUAGAAAAUGGAUUCUAUUAUGACAUGUACCUCGAAGAAGGGGGUGUGUCCCGCAAUGAUUUCUCUUCUCUGGAGGCUUUGUGUAAGAAAAUCAUUAAAGAAAAACAAGCUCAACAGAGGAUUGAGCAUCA: 0.37 ratio
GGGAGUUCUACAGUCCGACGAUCAAGAGAAAGAAGGUUAAGCUGGCUGUCCUGAAAUAUUAUAAGGUGGAUGAGAAUGGCAAAAUCCGUCGCCUUCGUCGAGAGUGCCCUUCUGAUGAAUGUGGUGCUGGGGUGUUUAUGGCACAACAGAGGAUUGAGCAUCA: 0.339 ratio
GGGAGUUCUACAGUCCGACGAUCUCAAAAUUAUGGCAUCGUCAAAGCAUUGUGGUGUCUUUUUUACUGCUGCUUGCUGUGCUUACCGCUACGUAUUAUGUUGAAGGAGUGCAUCAACAGUAUGUGCAACGUAUAGAGAAACAGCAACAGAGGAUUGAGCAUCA: 0.228 ratio

Block 2
Target: Prothrombin, mature alpha-thrombin (F2, Homo sapiens, UniProt P00734)
Method: aptamer microarray, sandwich
Molecule type: DNA with 2'F-ANA
Sample: in vitro
Tested at: 200 nM
Notes: whole 15-mer aptamer, many near background
Added: Cy3 exosite-II aptamer, 400 nM
Direction: higher = stronger binding
Endpoint: mean fluorescence intensity
Oligonucleotide: GGTTGGTGTGGTTGG
2'F-ANA at 1 4 6 9 10 12 13 15: 64.6 a.u.
2'F-ANA at 1 4 5 9 10 11 12 15: 48.2 a.u.
2'F-ANA at 1 5 6 7 11 12 14 15: 46.8 a.u.
2'F-ANA at 1 4 6 10 13 15: 44.9 a.u.
2'F-ANA at 3 5 7 10 12 13 15: 89.3 a.u.
2'F-ANA at 1 2 4 5 6 7 8 10 13 14 15: 47 a.u.
2'F-ANA at 2 4 7 8 10 11 12 13 14: 63.2 a.u.
2'F-ANA at 3 6 7 9: 850 a.u.
2'F-ANA at 2 5 6 9 10 12 13: 48.5 a.u.
2'F-ANA at 2 3 6 7 9 11 15: 551 a.u.
2'F-ANA at 5 6 8 9 12 13 14: 51 a.u.
2'F-ANA at 2 4 8 13 15: 335 a.u.
2'F-ANA at 1 4 5 6 9 11 12 13 15: 63.4 a.u.
2'F-ANA at 1 6 11 13: 126 a.u.
2'F-ANA at 8 11 14 15: 199 a.u.
2'F-ANA at 6 7 9 13 15: 319 a.u.
2'F-ANA at 8 10 14: 111 a.u.
2'F-ANA at 1 3 4 8 11 13: 185 a.u.
2'F-ANA at 4 5 7 8 9 11 12 15: 104 a.u.
2'F-ANA at 8 9 12 13 15: 686 a.u.
2'F-ANA at 1 5 7 10 13: 48.8 a.u.
2'F-ANA at 1 3 4 6 7 8 12 13 14: 110 a.u.
2'F-ANA at 2 7 10 12 14: 99.8 a.u.
2'F-ANA at 1 2 6 10 11 15: 52.2 a.u.
2'F-ANA at 1 2 3 4 6 8 15: 179 a.u.

Block 3
Target: RNA binding protein fox-1 homolog 2, RRM domain, GST-SBP tag (RBFOX2, Homo sapiens, UniProt O43251-10, residues 100-194)
Method: RNA Bind-n-Seq
Molecule type: RNA
Sample: in vitro
Tested at: 365 nM
Notes: natural RNA segment, single round, ends assumed
Baseline: no-protein control
Direction: higher = stronger binding
Endpoint: RBNS enrichment (R)
Target sequence (chain): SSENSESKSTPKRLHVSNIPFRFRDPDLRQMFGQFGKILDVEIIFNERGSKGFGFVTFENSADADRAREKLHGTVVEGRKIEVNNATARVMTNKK
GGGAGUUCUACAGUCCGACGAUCUUUUGUUUUCCAUUGAGUGUACACUACUGAAUAAGUGUAGGAGUUUUAUGUUUACCAUGUGAGUCCUGCAACACUAAAGAUAUUUUGAAUAUCAGUCAUGAUGGCAAUUUUGGAAUUCUCGGGUGCCAA: 0.363
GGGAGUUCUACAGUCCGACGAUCUUCUCCACUUUUAUAAAGCCAAGCCUUUCCCCAGAAUAGUAUUAACUCCUGGUGCUUUGUACUACUGGUUCAGCGGCCUCGGGCUUCUUUUCUAUAUUAAUAAAGAAGAGUGGAAUUCUCGGGUGCCAA: 0.5
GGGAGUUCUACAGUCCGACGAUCAGUCAAUGCAUUAACCCUCAUCUGUGUAUUAUUUGUUCACAAGUUCCAGAGGUUGAAGGACUGACUCUCACAUCUGUCCUGAGGUAGAGAGUAGGGGUGGGGACAAGGUAUGGAAUUCUCGGGUGCCAA: 0.922
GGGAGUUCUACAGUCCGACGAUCCCCAGUGGCUCUCAACCCAUGCGCUACCAAAUACGCCUGGGCAGCCGGGACGGGCCGGCGGGCACCAGGCUGGGGUCUCCUUGUCUGUGCUCUGAUAUGCUCCUUGACUGUGGAAUUCUCGGGUGCCAA: 0.442
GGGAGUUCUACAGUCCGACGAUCAAGGAAAAAAAAACAAAAUAACAAGGGUUAGAAGUUCAAAGUAAAAAACAGACAUCUUUGAUUUCUGAUUAAGAAAAAGCACUCUACAUCUUUUUUUUUUAAGUUUUCUAUGGAAUUCUCGGGUGCCAA: 0.818
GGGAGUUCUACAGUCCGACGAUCCCUCGUAAGCAUUGGAAGGUCAAAUUAUUUUGAAGUGAUUUUUUUAAAAAAAAGUCUUCUGUUUAUUAACAGGAAAAUUUAUUUAUUUGACAGGAUUUUGAGUAAUGUAGUGGAAUUCUCGGGUGCCAA: 0.869
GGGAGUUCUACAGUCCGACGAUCAAAUAUGGCCCCCAGCUAUUUUUGUAAAUAAAGGUUUAUUGGGAACACAGCCACACCCAAUCCUUCAGGUCUAUGGCUGCUUCUGCCCUACAGUGAUUGAGUUGCAUAGUUGGAAUUCUCGGGUGCCAA: 0.482
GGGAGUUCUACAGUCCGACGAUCUUUAUAGUUACACAAGGACUUCUCCCAGCUGACCCUCAGGAUGCCCCAAGUCAGGAAGACCAUUAAGAAUAGGAGGAGAGGGCUCUGCCUCAACUUUCCUAGGAAAGAGCUGGAAUUCUCGGGUGCCAA: 0.236
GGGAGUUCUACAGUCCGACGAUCUAAAACUGCAGUAGAAUGAAAUGAGUCAGGGAGCUUCAGUUAGAAAAUAAAGUUGAGGCAGUUUUUGUGAAGAUAAUAUGGUUAGGGCUGGAGUGCACUAGUCUUUUUGCUGGAAUUCUCGGGUGCCAA: 2.14
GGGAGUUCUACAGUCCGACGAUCGAGCACACUGCCUCAUUUUCCUCACCAACAAGACAAAGCCUUUCCAAUGAUUUUUUUUUAAACUUUCAAAGUGGUUGUUCAAAGUGUAGCAACUUGUAUGUUGAAAUGAUUGGAAUUCUCGGGUGCCAA: 0.58
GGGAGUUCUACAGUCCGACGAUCCUGGCAUCUCAGACAUGGUUCCUGCCUCACUUGUGGGAGCUGGACCAGCCUGGGUUUCAUCUCCCACAGUAAAGCUAAGUAAGCCCCACAGACCUUACUGCUACUGCUGCUGGAAUUCUCGGGUGCCAA: 0.285
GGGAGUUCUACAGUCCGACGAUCAUACGCAAGCUGCACAACCUGUAUAUUGUAUGCAUUGCUGCGUGGAGGCUGUUUAUUUCAACCUUUUUAAAAAUUGUGUUUUUUAGUAAAAUGGCUUAUUUUUUCCCAAAUGGAAUUCUCGGGUGCCAA: 1.13

Block 4
Target: Histone acetyltransferase KAT6A, winged helix 2, GST fusion (KAT6A, Homo sapiens, UniProt Q92794, residues 85-181)
Method: protein binding microarray
Molecule type: double-stranded DNA, one strand shown
Sample: in vitro
Tested at: not given
Notes: 8-mer, flanks averaged, mean of 2 arrays, mostly near background
Baseline: not given
Direction: higher = stronger binding
Endpoint: E-score
Target sequence (chain): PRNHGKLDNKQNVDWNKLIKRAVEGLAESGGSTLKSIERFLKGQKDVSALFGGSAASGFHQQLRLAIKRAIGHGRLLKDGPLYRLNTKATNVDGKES
CGCCCTGA: 0.139
CTACTAAG: -0.162
CATAAATA: -0.13
GGCGCTAC: 0.0135
AGGCCTGC: 0.0512
ACAGCTGT: -0.095
ATACAATC: -0.0179
CGCATTAG: 0.0622
AAGTCCAT: -0.286
AGCGCCGA: 0.0774
AGCTTCCC: -0.0271
AGGGTGGG: 0.0576
GCGTAGAA: 0.0352
CCCTCTTA: 0.0677
AAGATTCC: 0.0884
CGCGAGTC: 0.0808
CCAAGAGA: 0.0345

Some of these lines once more (block 3):
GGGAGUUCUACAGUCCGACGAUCAAAUAUGGCCCCCAGCUAUUUUUGUAAAUAAAGGUUUAUUGGGAACACAGCCACACCCAAUCCUUCAGGUCUAUGGCUGCUUCUGCCCUACAGUGAUUGAGUUGCAUAGUUGGAAUUCUCGGGUGCCAA: 0.482
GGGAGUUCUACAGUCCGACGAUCUUUAUAGUUACACAAGGACUUCUCCCAGCUGACCCUCAGGAUGCCCCAAGUCAGGAAGACCAUUAAGAAUAGGAGGAGAGGGCUCUGCCUCAACUUUCCUAGGAAAGAGCUGGAAUUCUCGGGUGCCAA: 0.236
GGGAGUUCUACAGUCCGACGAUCUAAAACUGCAGUAGAAUGAAAUGAGUCAGGGAGCUUCAGUUAGAAAAUAAAGUUGAGGCAGUUUUUGUGAAGAUAAUAUGGUUAGGGCUGGAGUGCACUAGUCUUUUUGCUGGAAUUCUCGGGUGCCAA: 2.14
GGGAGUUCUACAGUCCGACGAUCGAGCACACUGCCUCAUUUUCCUCACCAACAAGACAAAGCCUUUCCAAUGAUUUUUUUUUAAACUUUCAAAGUGGUUGUUCAAAGUGUAGCAACUUGUAUGUUGAAAUGAUUGGAAUUCUCGGGUGCCAA: 0.58
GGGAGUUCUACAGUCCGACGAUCCUGGCAUCUCAGACAUGGUUCCUGCCUCACUUGUGGGAGCUGGACCAGCCUGGGUUUCAUCUCCCACAGUAAAGCUAAGUAAGCCCCACAGACCUUACUGCUACUGCUGCUGGAAUUCUCGGGUGCCAA: 0.285
